Published values from different studies.
A part holds a random share of what one study measured. Changes are numbered by the printed parent chain.
Sequence of UniProt Q15418 (whole entry, looked up): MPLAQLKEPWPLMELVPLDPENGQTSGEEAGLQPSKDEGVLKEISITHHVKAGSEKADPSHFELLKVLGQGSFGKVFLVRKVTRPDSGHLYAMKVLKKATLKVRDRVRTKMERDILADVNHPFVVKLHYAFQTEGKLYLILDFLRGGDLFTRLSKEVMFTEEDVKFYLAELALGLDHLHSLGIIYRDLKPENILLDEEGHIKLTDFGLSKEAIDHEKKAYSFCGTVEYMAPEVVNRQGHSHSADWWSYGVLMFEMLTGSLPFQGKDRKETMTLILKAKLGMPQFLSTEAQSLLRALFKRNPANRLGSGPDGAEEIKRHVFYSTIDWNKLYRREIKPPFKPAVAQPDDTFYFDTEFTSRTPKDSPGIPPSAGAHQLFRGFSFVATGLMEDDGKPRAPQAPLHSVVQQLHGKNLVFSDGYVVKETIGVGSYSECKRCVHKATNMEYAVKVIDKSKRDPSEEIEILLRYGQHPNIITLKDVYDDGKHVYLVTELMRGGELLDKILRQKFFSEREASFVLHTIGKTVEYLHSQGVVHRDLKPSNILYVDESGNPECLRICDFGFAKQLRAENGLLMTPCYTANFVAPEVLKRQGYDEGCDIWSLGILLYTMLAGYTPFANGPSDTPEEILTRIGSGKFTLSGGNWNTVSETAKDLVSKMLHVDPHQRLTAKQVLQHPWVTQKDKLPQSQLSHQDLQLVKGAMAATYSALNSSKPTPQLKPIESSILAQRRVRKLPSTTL
Sequence of UniProt Q13523 (whole entry, looked up): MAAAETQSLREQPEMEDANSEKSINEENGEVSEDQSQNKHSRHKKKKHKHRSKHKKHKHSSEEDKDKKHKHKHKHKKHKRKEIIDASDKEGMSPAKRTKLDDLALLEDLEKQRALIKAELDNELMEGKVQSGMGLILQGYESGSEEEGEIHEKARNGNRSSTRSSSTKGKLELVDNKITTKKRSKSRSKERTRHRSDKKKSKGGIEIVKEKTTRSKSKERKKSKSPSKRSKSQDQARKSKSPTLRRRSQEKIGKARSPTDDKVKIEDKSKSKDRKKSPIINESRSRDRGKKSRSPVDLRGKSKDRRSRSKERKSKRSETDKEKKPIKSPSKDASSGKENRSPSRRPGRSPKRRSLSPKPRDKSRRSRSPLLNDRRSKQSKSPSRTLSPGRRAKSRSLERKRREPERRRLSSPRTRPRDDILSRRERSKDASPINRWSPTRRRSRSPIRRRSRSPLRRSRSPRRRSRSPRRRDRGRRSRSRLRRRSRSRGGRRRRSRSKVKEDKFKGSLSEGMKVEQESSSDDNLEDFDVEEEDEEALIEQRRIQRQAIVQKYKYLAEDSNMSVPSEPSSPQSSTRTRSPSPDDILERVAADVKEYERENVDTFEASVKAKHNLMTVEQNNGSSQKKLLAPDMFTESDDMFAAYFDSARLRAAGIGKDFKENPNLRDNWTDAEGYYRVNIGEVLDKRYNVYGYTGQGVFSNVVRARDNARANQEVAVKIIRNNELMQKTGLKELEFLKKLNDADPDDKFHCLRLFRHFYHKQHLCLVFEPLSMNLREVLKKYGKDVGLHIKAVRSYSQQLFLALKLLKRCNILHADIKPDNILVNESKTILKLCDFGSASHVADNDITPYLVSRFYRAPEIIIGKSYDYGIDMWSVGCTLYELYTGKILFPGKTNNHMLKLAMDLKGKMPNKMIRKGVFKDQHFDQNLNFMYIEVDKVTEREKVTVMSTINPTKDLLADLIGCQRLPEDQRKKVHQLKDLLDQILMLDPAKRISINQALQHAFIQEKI
Sequence of UniProt Q9Y2U5 (whole entry, looked up): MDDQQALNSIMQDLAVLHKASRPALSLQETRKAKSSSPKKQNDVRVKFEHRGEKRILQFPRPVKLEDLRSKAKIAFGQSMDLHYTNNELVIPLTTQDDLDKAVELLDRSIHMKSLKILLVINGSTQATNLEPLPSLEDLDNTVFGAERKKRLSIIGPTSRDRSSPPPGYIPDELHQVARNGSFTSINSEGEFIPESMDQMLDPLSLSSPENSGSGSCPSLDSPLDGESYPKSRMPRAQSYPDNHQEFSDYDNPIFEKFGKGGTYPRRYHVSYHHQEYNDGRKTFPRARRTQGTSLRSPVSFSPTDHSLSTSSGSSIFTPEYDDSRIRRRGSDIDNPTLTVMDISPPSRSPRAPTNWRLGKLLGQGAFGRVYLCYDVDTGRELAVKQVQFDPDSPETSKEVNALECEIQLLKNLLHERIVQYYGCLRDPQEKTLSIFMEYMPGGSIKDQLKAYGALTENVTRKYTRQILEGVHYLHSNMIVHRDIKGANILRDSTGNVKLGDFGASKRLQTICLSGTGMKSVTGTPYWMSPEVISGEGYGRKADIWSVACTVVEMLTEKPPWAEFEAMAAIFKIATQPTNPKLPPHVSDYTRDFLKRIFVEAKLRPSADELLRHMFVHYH
Sequence of UniProt P00519 (whole entry, looked up): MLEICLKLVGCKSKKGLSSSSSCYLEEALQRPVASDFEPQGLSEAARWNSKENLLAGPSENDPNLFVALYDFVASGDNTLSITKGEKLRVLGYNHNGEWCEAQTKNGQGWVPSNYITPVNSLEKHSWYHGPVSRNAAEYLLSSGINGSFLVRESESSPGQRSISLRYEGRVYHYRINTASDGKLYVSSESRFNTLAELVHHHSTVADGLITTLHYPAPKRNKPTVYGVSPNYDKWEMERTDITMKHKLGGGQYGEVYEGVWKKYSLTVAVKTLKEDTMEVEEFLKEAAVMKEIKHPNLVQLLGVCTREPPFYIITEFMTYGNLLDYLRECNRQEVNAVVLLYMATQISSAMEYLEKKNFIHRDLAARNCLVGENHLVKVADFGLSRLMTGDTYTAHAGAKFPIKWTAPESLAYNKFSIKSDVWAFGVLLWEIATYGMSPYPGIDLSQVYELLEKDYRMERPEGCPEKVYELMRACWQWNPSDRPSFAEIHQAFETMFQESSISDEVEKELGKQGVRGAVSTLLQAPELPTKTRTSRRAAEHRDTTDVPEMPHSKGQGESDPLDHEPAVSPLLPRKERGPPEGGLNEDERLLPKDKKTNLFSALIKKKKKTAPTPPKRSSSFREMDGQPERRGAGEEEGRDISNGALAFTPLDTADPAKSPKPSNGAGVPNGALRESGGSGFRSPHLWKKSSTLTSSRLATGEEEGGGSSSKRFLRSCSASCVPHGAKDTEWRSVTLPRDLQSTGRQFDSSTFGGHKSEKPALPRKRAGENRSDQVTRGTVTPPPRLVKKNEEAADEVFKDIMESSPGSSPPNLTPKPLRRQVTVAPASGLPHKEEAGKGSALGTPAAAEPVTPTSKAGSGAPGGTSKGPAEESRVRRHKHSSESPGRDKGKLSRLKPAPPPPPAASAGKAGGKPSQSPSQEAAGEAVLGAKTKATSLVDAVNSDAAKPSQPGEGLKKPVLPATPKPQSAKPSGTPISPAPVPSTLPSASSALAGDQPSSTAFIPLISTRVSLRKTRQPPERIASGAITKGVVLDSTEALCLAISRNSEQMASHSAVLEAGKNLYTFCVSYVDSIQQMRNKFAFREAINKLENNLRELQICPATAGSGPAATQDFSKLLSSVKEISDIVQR
Sequence of UniProt P08631 (whole entry, looked up): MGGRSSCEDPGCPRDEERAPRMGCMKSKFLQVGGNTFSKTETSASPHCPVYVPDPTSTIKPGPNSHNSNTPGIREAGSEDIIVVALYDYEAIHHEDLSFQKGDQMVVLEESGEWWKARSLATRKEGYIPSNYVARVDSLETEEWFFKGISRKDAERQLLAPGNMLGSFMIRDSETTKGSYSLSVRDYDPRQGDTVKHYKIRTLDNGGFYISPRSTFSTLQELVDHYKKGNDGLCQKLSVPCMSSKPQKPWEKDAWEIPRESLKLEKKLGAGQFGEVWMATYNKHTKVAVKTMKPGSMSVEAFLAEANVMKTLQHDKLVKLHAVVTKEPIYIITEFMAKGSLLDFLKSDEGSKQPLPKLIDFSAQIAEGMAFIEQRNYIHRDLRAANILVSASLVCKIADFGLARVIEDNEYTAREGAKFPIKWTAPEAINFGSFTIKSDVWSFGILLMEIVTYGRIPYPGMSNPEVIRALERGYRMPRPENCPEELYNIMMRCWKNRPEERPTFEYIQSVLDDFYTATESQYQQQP
Sequence of UniProt Q04771 (whole entry, looked up): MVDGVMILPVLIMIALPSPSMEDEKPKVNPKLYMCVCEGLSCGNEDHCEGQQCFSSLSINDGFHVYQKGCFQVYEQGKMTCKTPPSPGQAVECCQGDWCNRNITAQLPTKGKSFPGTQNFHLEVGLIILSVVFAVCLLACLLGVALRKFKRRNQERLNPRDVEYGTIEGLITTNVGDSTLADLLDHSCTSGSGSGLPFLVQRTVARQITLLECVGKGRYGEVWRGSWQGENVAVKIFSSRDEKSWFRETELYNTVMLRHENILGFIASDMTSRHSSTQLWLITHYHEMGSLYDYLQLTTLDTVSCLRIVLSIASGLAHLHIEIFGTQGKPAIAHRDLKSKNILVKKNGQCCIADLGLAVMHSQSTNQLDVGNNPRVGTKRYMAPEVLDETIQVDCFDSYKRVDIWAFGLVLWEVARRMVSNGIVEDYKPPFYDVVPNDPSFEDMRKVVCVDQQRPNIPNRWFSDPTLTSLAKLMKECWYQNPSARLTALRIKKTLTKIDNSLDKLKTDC
Sequence of UniProt Q00532 (whole entry, looked up): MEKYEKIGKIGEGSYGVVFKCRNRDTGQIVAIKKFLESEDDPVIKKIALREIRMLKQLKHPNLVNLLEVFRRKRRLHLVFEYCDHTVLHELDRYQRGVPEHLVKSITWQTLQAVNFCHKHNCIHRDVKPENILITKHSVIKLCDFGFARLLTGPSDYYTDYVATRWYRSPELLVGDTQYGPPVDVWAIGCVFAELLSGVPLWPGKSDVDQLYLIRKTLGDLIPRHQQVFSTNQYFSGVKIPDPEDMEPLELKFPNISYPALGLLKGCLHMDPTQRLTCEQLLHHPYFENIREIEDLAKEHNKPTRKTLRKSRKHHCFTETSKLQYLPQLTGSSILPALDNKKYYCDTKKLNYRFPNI

Study 1 — action: inhibitor; tested at: 1 µM
Structure (SMILES): CC#CC(=O)N1CCC[C@H]1c1nc(-c2ccc(C(=O)Nc3ccccn3)cc2)c2c(N)nccn12
| target | effect on | inhibition [%] |
| --- | --- | --- |
| Tyrosine-protein kinase HCK (HCK, Homo sapiens, UniProt P08631) | enzyme activity | 1 |
| Activin receptor type-1 (ACVR1, Homo sapiens, UniProt Q04771) | enzyme activity | 18 |
| Ribosomal protein S6 kinase alpha-1, kinase domain 1 (RPS6KA1, Homo sapiens, UniProt Q15418) | – | 7 |
| Tyrosine-protein kinase ABL1, phosphorylated (ABL1, Homo sapiens, UniProt P00519) | enzyme activity | 1 |
| Protein-tyrosine kinase 2-beta (PTK2B, Homo sapiens, UniProt Q14289) | enzyme activity | 0 |
| MAP kinase-activated protein kinase 2 (MAPKAPK2, Homo sapiens, UniProt P49137) | enzyme activity | 22 |
| Cyclin-dependent kinase-like 1 (CDKL1, Homo sapiens, UniProt Q00532) | enzyme activity | 7 |
| Epidermal growth factor receptor (EGFR, Homo sapiens, UniProt P00533, del747-752/P753S) | enzyme activity | 0 |

Study 2 — cell line: HaCaT; tested at: 100 µM; time: 36 h
| Structure (SMILES) | viability |
| --- | --- |
| COc1ccc(-c2cc(=O)c3c(O)c(OC)c(O)cc3o2)cc1OC | 60.4% |
| O=C(Nc1ccccc1)OCC(CN1CCCCC1)OC(=O)Nc1ccccc1 (centres unmarked) | 5.73% |
| CC(=O)Nc1ccccc1 | 86.1% |
| Cc1cn([C@H]2C=C[C@@H](CO)O2)c(=O)[nH]c1=O | 107% |
| COc1cc2c(N3CCN(C(=O)Nc4ccc(OC(C)C)cc4)CC3)ncnc2cc1OCCCN1CCCCC1 | 5.79% |
| O=[N+]([O-])c1ccc(O)c2ncccc12 | 7.59% |
| NS(=O)(=O)c1cc2c(cc1Cl)N=C(CSCc1ccccc1)NS2(=O)=O | 83.7% |
| CCCCC(CC)COC(=O)CC(C(=O)OCC(CC)CCCC)S(=O)(=O)O (centres unmarked) | 12.1% |

Further values, each from its own experiment
P1: PafA, mature enzyme, eGFP fusion (Elizabethkingia meningoseptica, UniProt Q9KJX5); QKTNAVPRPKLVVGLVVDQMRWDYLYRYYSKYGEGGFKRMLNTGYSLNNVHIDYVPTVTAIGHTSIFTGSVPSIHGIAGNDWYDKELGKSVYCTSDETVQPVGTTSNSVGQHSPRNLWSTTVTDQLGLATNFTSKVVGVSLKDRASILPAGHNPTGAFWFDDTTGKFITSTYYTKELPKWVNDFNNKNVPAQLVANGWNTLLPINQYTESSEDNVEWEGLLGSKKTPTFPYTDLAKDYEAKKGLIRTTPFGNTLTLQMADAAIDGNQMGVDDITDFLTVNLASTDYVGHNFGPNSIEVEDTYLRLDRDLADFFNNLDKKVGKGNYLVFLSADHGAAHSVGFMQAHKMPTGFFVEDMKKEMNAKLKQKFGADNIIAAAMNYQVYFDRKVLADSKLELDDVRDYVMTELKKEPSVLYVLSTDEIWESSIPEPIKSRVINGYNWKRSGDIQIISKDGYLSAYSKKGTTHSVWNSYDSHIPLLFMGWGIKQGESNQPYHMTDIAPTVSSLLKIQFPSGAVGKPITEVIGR
| Molecule | target | assay | test system | conditions | scale | measurement | value |
| --- | --- | --- | --- | --- | --- | --- | --- |
| P1 A195V | vanadate, free oxyanion | microfluidic competitive inhibition | in vitro, cell-free expressed | not given, derived from inhibition constants, unchanged parent 676 nM | lower = stronger binding | oxyanion analog dissociation constant | 780 nM |
| N#CC1(c2ccccn2)CCN(Cc2cc(C(=O)O)c(=O)n3ccccc23)CC1 | Serine/threonine-protein kinase PRP4 homolog (PRPF4B, Homo sapiens, UniProt Q13523) | cell-free assay, competition with immobilised ligand | – | 1 µM | – | remaining binding | 100% |
| CNC(=O)c1ccc(-c2cnn3ccc(C(=O)N(C)c4ccc(Cl)c(C(=O)O)c4)cc23)cc1 | Mitogen-activated protein kinase kinase kinase 2 (MAP3K2, Homo sapiens, UniProt Q9Y2U5) | enzyme activity, inhibitor | – | – | – | IC50 | > 30 µM |
| P1 F384V | vanadate, free oxyanion | microfluidic competitive inhibition | in vitro, cell-free expressed | not given, derived from inhibition constants, unchanged parent 676 nM | lower = stronger binding | oxyanion analog dissociation constant | 950 nM |

For quick reference, copied from above (study 1):
| target | effect on | inhibition [%] |
| --- | --- | --- |
| Protein-tyrosine kinase 2-beta (PTK2B, Homo sapiens, UniProt Q14289) | enzyme activity | 0 |
| MAP kinase-activated protein kinase 2 (MAPKAPK2, Homo sapiens, UniProt P49137) | enzyme activity | 22 |
| Cyclin-dependent kinase-like 1 (CDKL1, Homo sapiens, UniProt Q00532) | enzyme activity | 7 |
